Results of several laboratories.
Numbered parts are unrelated; each lists some results of a single study.

Block 1
Target: Histone acetyltransferase KAT6A, both winged helices, GST fusion (KAT6A, Homo sapiens, UniProt Q92794, residues 1-181)
Method: protein binding microarray
Form: double-stranded DNA, one strand shown
Matrix: in vitro
Concentration: not given
Notes: 8-mer, flanks averaged, mean of 2 arrays, mostly near background
Reference: not given
Reading: higher = stronger binding
Target sequence (chain): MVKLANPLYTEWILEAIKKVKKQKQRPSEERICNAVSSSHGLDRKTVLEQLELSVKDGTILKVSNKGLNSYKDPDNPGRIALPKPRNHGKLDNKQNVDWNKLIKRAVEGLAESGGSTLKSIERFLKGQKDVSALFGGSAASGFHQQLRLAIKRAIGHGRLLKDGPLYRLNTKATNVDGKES
| Strand | E-score |
| --- | --- |
| TAGGGCAA | -0.115 |
| CCCGGTAC | 0.0691 |
| ACAGTATC | -0.108 |
| CGTCCGCC | 0.258 |
| ATTCTTAG | -0.14 |
| AGGATAAT | -0.189 |
| CATGGTCA | 0.0199 |
| GCAAGACC | -0.0113 |
| CCGCTGAG | 0.121 |
| TCAGTGGA | 0.0152 |
| CCAGACAG | -0.224 |

Block 2
Target: Interferon regulatory factor 5, full length, phosphomimetic (IRF5, Homo sapiens, UniProt Q13568-2, residues 1-514, K96S/S451D/S453D/S456D/S462D)
Method: protein-binding microarray
Form: double-stranded DNA, one strand shown
Matrix: in vitro
Concentration: 250 nM
Notes: 60-bp whole probe
Added: salmon DNA 0.4 mg/ml
Reference: random background probes
Reading: higher = stronger binding
All sequences stand within: GCCTAGCAC … GTCTTGATTCGCTTGACGCTGCTG
| Strand | log fluorescence [z-score] |
| --- | --- |
| TTAGGTAACCTTTTCCTTTAGTGCTAG | 0.122 |
| CCATTTCTGTTTTTGCTTTCGTGCTAG | 5.07 |
| TTAGGACGGGGGACTGGGTTAGTGCTA | 0.941 |
| TTAGCTCTCCTTTTCCTTTAGTGCTAG | 0.618 |
| TTAGCTCTCCTTCTCCTTTAGTGCTAG | -0.0239 |
| GACGGTTTCGGGACTGGGGCCGTGCTA | 4.43 |
| TCATATATCCATTATAGACTGTGCTAG | 0.544 |

Block 3
Target: Sal-like protein 4, full length isoform A (SALL4, Homo sapiens, UniProt Q9UJQ4, residues 1-1053)
Sequence of UniProt Q9UJQ4 (whole entry, looked up): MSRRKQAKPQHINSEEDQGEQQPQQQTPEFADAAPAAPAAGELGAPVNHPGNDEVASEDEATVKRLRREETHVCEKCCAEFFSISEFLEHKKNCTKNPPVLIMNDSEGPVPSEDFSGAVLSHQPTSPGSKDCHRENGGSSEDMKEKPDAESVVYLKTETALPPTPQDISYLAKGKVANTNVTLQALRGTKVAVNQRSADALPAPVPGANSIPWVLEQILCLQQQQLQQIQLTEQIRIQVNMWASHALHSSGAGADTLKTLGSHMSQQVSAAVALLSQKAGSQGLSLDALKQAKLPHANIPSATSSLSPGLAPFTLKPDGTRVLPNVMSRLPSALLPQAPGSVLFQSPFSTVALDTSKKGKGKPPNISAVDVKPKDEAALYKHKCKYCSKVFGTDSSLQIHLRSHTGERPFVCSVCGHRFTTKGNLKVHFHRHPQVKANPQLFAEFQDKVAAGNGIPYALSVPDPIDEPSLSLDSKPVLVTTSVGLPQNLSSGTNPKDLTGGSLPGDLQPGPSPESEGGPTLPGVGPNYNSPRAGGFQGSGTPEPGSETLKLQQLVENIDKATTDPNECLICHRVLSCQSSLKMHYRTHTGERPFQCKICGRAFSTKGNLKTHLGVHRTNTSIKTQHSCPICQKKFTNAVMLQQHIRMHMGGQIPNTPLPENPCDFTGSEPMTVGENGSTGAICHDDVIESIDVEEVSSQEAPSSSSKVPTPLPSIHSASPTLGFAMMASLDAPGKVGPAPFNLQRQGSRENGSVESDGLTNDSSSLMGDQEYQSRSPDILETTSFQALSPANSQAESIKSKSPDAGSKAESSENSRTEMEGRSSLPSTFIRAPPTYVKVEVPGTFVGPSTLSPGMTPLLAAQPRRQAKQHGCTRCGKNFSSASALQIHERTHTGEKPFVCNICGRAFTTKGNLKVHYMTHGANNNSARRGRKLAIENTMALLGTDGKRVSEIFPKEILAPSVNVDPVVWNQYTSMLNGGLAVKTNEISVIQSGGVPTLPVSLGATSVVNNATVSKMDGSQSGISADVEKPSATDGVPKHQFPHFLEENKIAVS
Method: universal PBM
Form: double-stranded DNA, one strand shown
Matrix: in vitro
Concentration: 600 nM
Notes: 8-mer, flanks averaged, mean of replicates
Reading: higher = stronger binding
| Strand | E-score |
| --- | --- |
| CATAGGGG | -0.125 |
| GGTTTATA | 0.261 |
| CACACCCG | -0.222 |
| AAACGCCC | -0.191 |
| TGAATGCA | 0.226 |
| AAAGCTTA | 0.198 |
| AGTAGGTC | -0.147 |
| GTCCGCAC | -0.177 |

Other studies, line by line
| Molecule | target | test | test system | conditions | scale | quantity | value |
| --- | --- | --- | --- | --- | --- | --- | --- |
| PhoQ, residues 284 288 289 292 302 303 AGHLVA | PhoP, residues 12 14 15 18 19 NFCKL (Escherichia coli, UniProt P23836) | Sort-seq, item: YFP reporter | E. coli | PhoQ-PhoP variant library, added: 10 µM Mg2+ | reference: high Mg2+ state, higher = stronger signaling | fold induction | 1.03 |

A few entries again (block 2):
| Strand | log fluorescence [z-score] |
| --- | --- |
| GACGGTTTCGGGACTGGGGCCGTGCTA | 4.43 |
| TTAGGTAACCTTTTCCTTTAGTGCTAG | 0.122 |
